Results of several laboratories.
Several values in a cell are separate wells, animals, samples, runs or records. ± gives the spread as reported.

SMILES	target or system	test	test system	setting	measurement	value
CC[C@H](C)[C@H](NC(=O)[C@H](Cc1c[nH]c2ccccc12)NC(=O)c1ccccc1)C(=O)N[C@H](C(=O)N[C@@H](Cc1ccc(O)cc1)C(=O)N[C@@H](CCCCN)C(=O)N[C@@H](Cc1c[nH]c2ccccc12)C(=O)N[C@H](CCCNC(=N)N)C(=O)N[C@@H](CCCNC(=N)N)C(=O)N[C@@H](CCCCN)C(=O)N[C@H](C(=O)N[C@H](C(=O)N[C@@H](CCCNC(=N)N)C(=O)N[C@@H](Cc1ccc(O)cc1)C(=O)N[C@@H](Cc1c[nH]c2ccccc12)C(=O)N[C@H](C(=O)NCC(=O)N[C@@H](CCCCN)C(=O)N[C@@H](CCCNC(=N)N)C(N)=O)[C@@H](C)O)C(C)C)C(C)C)C(C)C		circular dichroism	phosphate buffer	30 µM, pH 6.5	melting temperature	55.1 °C
CSCC[C@H](NC(=O)CNC(=O)[C@H](CCCCN)NC(=O)[C@H](CC(C)C)NC(=O)[C@@H]1CCCN1C(=O)[C@H](CO)NC(=O)[C@H](Cc1c[nH]cn1)NC(=O)[C@H](Cc1c[nH]c2ccccc12)NC(=O)[C@H](CCCNC(=N)N)NC(=O)[C@H](CC(C)C)NC(=O)[C@H](CCCNC(=N)N)NC(=O)[C@H](Cc1c[nH]c2ccccc12)NC(=O)[C@H](CS)NC(=O)CCCCCNC(=O)CN1CCN(CC(=O)O)CCN(CC(=O)O)CCN(CC(=O)O)CC1)C(=O)O [copper-64 labelled]		ex vivo biodistribution	male C57BL/6J mice, testis	intravenous, 1.85 MBq, 30 h, B16-F10 tumour-bearing	tissue uptake	0.8 %ID/g
CCn1ccc(-c2cc([C@@H](C)NC(=O)c3cc(OC[C@@H]4CCN4C)ccc3C)c3ccccc3n2)n1	African green monkey cells			7.812 µM	viability	94%
N=C(N)NCCC[C@@H](NC(=O)[C@H](N)Cc1c[nH]c2ccccc12)C(=O)N[C@H](CCCCN)C(=O)N[C@H](Cc1c[nH]c2ccccc12)C(=O)N[C@H](CCCNC(=N)N)C(=O)N[C@H](CCCCN)C(=O)N[C@H](Cc1c[nH]c2ccccc12)C(=O)N[C@H](CCCNC(=N)N)C(=O)N[C@H](CCCCN)C(=O)N[C@H](Cc1c[nH]c2ccccc12)C(=O)N[C@H](CCCNC(=N)N)C(=O)N[C@H](CCCCN)C(N)=O			mouse	intraperitoneal, 20 mg/kg single dose, day 4	survival	100%
CC[C@H](C)[C@H](NC(=O)[C@H](CCCCN)NC(=O)CNC(=O)[C@H](CC(C)C)NC(=O)[C@H](Cc1ccccc1)NC(=O)[C@H](CCCCN)NC(=O)[C@H](CO)NC(=O)[C@H](Cc1ccccc1)NC(=O)[C@H](Cc1c[nH]c2ccccc12)NC(=O)[C@H](CCC(N)=O)NC(=O)[C@@H](NC(=O)[C@H](Cc1ccccc1)NC(=O)CCCCCNC(=O)CN1CCN(CC(=O)O)CCN(CC(=O)O)CCN(CC(=O)O)CC1)C(C)C)C(=O)N[C@@H](CCC(=O)O)C(=O)N1CCC[C@H]1C(=O)N[C@@H](CC(=O)O)C(=O)N[C@H](C(=O)N[C@@H](CO)C(=O)N[C@@H](CCC(N)=O)C(=O)N[C@H](C(=O)N[C@@H](CCC(N)=O)C(=O)N[C@@H](CC(=O)O)C(=O)N1CCC[C@H]1C(=O)N[C@@H](CC(N)=O)C(=O)N[C@@H](CC(=O)O)C(=O)N[C@@H](CCC(N)=O)C(=O)N[C@@H](Cc1ccc(O)cc1)C(=O)N[C@@H](CCC(=O)O)C(=O)N1CCC[C@H]1C(=O)N[C@@H](Cc1ccccc1)C(=O)O)C(C)C)C(C)C [copper-64 labelled]			C57BL/6 mice, heart	added: LPS 3 mg/kg intratracheal	tissue uptake	1.66 ± 0.2 %ID/g
COc1ccc(CNc2ccc3c(c2)S(=O)(=O)C=C3)cc1			male C57BL/6 mice, blood	intraperitoneal, 20 mg/kg, day 8, group average	mean corpuscular volume	51.9 fL
C[C@H](O)[C@@H](NC(=O)[C@H]1CCCN1C(=O)[C@@H](CCCCN)NC(=O)[C@@H](CO)NC(=O)[C@@H](Cc1ccc(O)cc1)NC(=O)[C@@H](CC(N)=O)NC(=O)CCOCCOCCOCCNC(=O)CN1CCN(CC(=O)O)CCN(CC(=O)O)CCN(CC(=O)O)CC1)C(=O)N[C@H](CC(=O)O)C(=O)N[C@H](CCCNC(=N)N)C(=O)N[C@H](CCC(N)=O)C(=O)N[C@H](Cc1ccc(O)cc1)C(=O)N[C@H](Cc1c[nH]cn1)C(=O)N[C@H](Cc1ccccc1)C(N)=O [copper-64 labelled]			C57BL/6J mice, brain	intravenous, 1.85 MBq, 1 h, radiolabelled	tissue uptake	0.04 ± 0.01 %ID/g
Cc1ccc(OC2CN(C)C2)cc1C(=O)N[C@H](C)c1cc(-c2cnn(C)c2)nc2ccccc12	Vero E6			15.62 µM	viability	97.4% and 97.2% and 98.2%
O=C1NC2(CC2)COc2ncc(F)cc2[C@H]2COCCN2c2ccn3ncc1c3n2			Sprague-Dawley rat, female, serum	oral, 2.5 mg/kg/day, 4 weeks daily, end of treatment	gamma-glutamyltransferase activity	0.1 U/L
CC[C@H](C)[C@H](NC(=O)[C@H](CCCNC(=N)N)NC(=O)[C@H](CCCCN)NC(=O)[C@H](Cc1ccc(O)cc1)NC(=O)[C@H](CC(=O)O)NC(=O)[C@H](C)NC(=O)CNC(=O)CCOCCOCCOCCNC(=O)CN1CCN(CC(=O)O)CCN(CC(=O)O)CCN(CC(=O)O)CC1)C(=O)N[C@H](C(=O)N[C@@H](CC(C)C)C(=O)N[C@@H](CCCCN)C(=O)N[C@H](C(=O)N[C@@H](CC(N)=O)C(N)=O)C(C)C)[C@@H](C)O [copper-64 labelled]		ex vivo gamma counting	C57BL/6J male mice, B16-F10 tumour, kidney	intravenous, 1.85 MBq, 40 min	tissue uptake	11.3 ± 1.95 %ID/g
CC(C)C[C@H](NC(=O)[C@H](Cc1ccc(O)cc1)NC(=O)[C@H](Cc1c[nH]cn1)NC(=O)[C@H](CCCCN)NC(=O)[C@H](CC(C)C)NC(=O)[C@H](C)NC(=O)[C@H](CC(C)C)NC(=O)[C@H](CCCCN)NC(=O)CNC(=O)[C@@H](NC(=O)[C@@H](NC(=O)[C@H](CCCCN)NC(=O)[C@@H](NC(=O)[C@H](CCC(=O)O)NC(=O)[C@H](C)NC(=O)[C@H](CCCCN)NC(=O)[C@H](CCCCN)NC(=O)[C@H](CC(C)C)NC(=O)[C@H](CC(C)C)NC(=O)[C@@H](NC(=O)[C@H](CCCNC(=N)N)NC(=O)[C@H](Cc1c[nH]c2ccccc12)NC(=O)CN)[C@@H](C)O)C(C)C)[C@@H](C)O)C(C)C)C(N)=O			zebrafish embryos 4 hpf, E3 medium	1 h	acute toxic concentration	25 µM
CCC1CC(c2ccc(C(=O)O)cc2C)=NN1c1ccc(C#N)c(Cl)c1 (stereo not drawn)			human, liver microsomes	1 µM	intrinsic clearance	< 5 µL/min/mg
COc1cnc2cccc(N3CCc4c(cc(Cn5ccnc5)cc4-c4cn(C)nc4C(F)(F)F)C3=O)c2c1			BALB/c nude mice, MV4-11 xenograft	intraperitoneal, 100 mg/kg, day 10	body weight	22.2 g and 25.3 g and 22.3 g and 23.2 g and 25.1 g
CCCCCCCCCCCCCCCC(=O)N1CCN(C(=O)C2CCNCC2)CCN(C(=O)C2CCNCC2)CC1		dynamic light scattering	deionized water	128 µg/mL, 25 °C, intensity average	hydrodynamic diameter	355 nm
CSCC[C@@H]1NC(=O)[C@H](C(C)C)NC(=O)[C@H](CCCNC(=N)N)NC(=O)CNC(=O)[C@@H]2CCCN2C(=O)[C@@H](NC(=O)CNC(=O)[C@H](CO)NC(=O)CNC(=O)[C@H](CO)NC(=S)Nc2ccc(C[C@H]3CN(CC(=O)O)CCN(CC(=O)O)CCN3CC(=O)O)cc2)CSSC[C@@H](C(N)=O)NC(=O)[C@@H]2CCCN2C(=O)CNC(=O)[C@H](CCC(=O)O)NC(=O)[C@H](CC(=O)O)NC(=O)[C@H](CC(=O)O)NC(=O)CNC(=O)[C@H](CC(C)C)NC(=O)[C@H](Cc2c[nH]cn2)NC(=O)[C@H](CC(C)C)NC(=O)CNC(=O)[C@H](Cc2c[nH]cn2)NC1=O [copper-64 labelled]		SE-HPLC	rat serum	concentration not given, 1 h, 37 °C	albumin-bound radioactivity	3.3%

Repeated from above:
SMILES	target or system	test	test system	setting	measurement	value
CC(C)C[C@H](NC(=O)[C@H](Cc1ccc(O)cc1)NC(=O)[C@H](Cc1c[nH]cn1)NC(=O)[C@H](CCCCN)NC(=O)[C@H](CC(C)C)NC(=O)[C@H](C)NC(=O)[C@H](CC(C)C)NC(=O)[C@H](CCCCN)NC(=O)CNC(=O)[C@@H](NC(=O)[C@@H](NC(=O)[C@H](CCCCN)NC(=O)[C@@H](NC(=O)[C@H](CCC(=O)O)NC(=O)[C@H](C)NC(=O)[C@H](CCCCN)NC(=O)[C@H](CCCCN)NC(=O)[C@H](CC(C)C)NC(=O)[C@H](CC(C)C)NC(=O)[C@@H](NC(=O)[C@H](CCCNC(=N)N)NC(=O)[C@H](Cc1c[nH]c2ccccc12)NC(=O)CN)[C@@H](C)O)C(C)C)[C@@H](C)O)C(C)C)C(N)=O			zebrafish embryos 4 hpf, E3 medium	1 h	acute toxic concentration	25 µM
CCC1CC(c2ccc(C(=O)O)cc2C)=NN1c1ccc(C#N)c(Cl)c1 (stereo not drawn)			human, liver microsomes	1 µM	intrinsic clearance	< 5 µL/min/mg
